# Assay results from different studies.
# Numbered parts are unrelated; each lists some results of a single study. Substitutions count along the parent as printed.

# Study 1
# Target: ABI1, truncated, D143A, DHFR fusion (Arabidopsis thaliana, UniProt P49597)
# Method: DHFR PCA, dose-response
# Matrix: yeast
# Setting: Hill fit, not affinity, not high confidence
# Together with: (+)-ABA, dose series
# Direction: lower = more sensitive
# Starting sequence: PYL1, truncated, DHFR fusion (Arabidopsis thaliana, UniProt Q8VZS8); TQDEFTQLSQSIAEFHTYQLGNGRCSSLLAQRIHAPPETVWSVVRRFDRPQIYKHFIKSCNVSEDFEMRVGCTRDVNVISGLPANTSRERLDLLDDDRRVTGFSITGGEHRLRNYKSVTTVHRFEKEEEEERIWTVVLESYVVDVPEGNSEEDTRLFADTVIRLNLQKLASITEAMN
Variant,ABA EC50
I162P,3.92 µM
E139P,5.05 µM
V76W,11.6 µM
R123G,6.52 µM
H110M,602 µM
W41M,5.79 µM
Y141A,3.79 µM
T86W,0.126 µM
A35Y,649 µM
Y141R,9.47 µM
V40Q,63.8 µM
N85Q,3.27 µM
I33N,1.5 µM
F47N,0.192 µM

# Study 2
# Target: BIRC6 UBC core domain (UniProt Q9NR09)
# Method: yeast two-hybrid
# Matrix: yeast
# Setting: mostly zero background
# Baseline: not given
# Direction: higher = stronger interaction
# B1: UBOX5 RING domain (UniProt O94941); chain EQPGSILGPECASCKRVFSPYFKKEPVYQLPCGHLLCRPCLGEKQRSLPMTCTACQRPVASQDVLR
# B2: ZMIZ2 RING domain (UniProt Q8NF64); chain GTIPGTPGPNGEDGVEQTAIKVSLKCPITFRRIQLPARGHDCRHIQCFDLESYLQLNCERGTWRCPVCNKTALLEGLEVDQYMLGILIYIQNSDYEEITIDPTCSWK
# B3: SYTL4 RING domain (UniProt Q96C24); chain RGSQHYSDRTCARCQESLGRLSPKTNTCRGCNHLVCRDCRIQESNGTWRCKVCAKEIELKKAT
# B4: RNF133 RING domain (UniProt Q8WVZ7); chain DEEINPNGDSCVICFERYKPNDIVRILTCKHFFHKNCIDPWILPHGTCPICKCDILKVLGIQ
# B5: RBCK1 RING domain (UniProt Q9BYM8); chain SLVLNTEPAECPVCYSVLAPGEAVVLRECLHTFCRECLQGTIRNSQEAEVSCPFIDNTYSCSGKLLEREIK
Molecule,lacZ reporter activity
B1 (UBOX5 RING domain),0
B2 (ZMIZ2 RING domain),0
GSRLQEINDVCAICYHEFTTSARITPCNHYFHALCLRKWLYIQDTCPMCHQKVYIEDDIK (RNF139 RING domain (UniProt Q8WU17)),0
AMYLQENGIDCPKCKFSYALARGGCMHFHCTQCRHQFCSGCYNAFYAKNKC (RNF31 RING domain (UniProt Q96EP0)),0
B3 (SYTL4 RING domain),0
B4 (RNF133 RING domain),0
KETIKKTTKPCPRCHVPVEKNGGCMHMKCPQPQCRLEWCWNCGCEWNRVCMG (PRKN RING domain (UniProt O60260)),0
KLRKLKEAMLCMVCCEEEINSTFCPCGHTVCCESCAAQLQSCPVCRSRVEHVQHVY (MYLIP RING domain (UniProt Q8WY64)),0
B5 (RBCK1 RING domain),0
GSDDEEIPFKCFICRQSFQNPVVTKCRHYFCESCALQHFRTTPRCYVCDQQTNGVFNPA (RNF113A RING domain (UniProt O15541)),0

# Study 3
# Target: Ras GTPase-activating protein-binding protein 1, RRM domain (G3BP1, Homo sapiens, UniProt Q13283)
# UniProt Q13283, sequence (whole entry, looked up): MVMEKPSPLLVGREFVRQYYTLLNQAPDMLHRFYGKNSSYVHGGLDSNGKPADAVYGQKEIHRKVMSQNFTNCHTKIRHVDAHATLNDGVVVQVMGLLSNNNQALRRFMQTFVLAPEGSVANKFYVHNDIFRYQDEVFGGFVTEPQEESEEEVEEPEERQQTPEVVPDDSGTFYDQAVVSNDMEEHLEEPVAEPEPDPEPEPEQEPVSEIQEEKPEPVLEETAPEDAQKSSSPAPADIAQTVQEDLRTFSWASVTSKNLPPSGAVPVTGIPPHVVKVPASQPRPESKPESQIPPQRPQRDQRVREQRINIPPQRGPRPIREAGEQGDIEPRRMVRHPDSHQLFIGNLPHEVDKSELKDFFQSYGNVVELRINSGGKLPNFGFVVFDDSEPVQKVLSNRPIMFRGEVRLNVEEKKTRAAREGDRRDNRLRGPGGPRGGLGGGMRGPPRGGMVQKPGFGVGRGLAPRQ
# Method: RNA Bind-n-Seq
# Molecule type: RNA
# Matrix: in vitro
# Tested at: 1 µM
# Setting: whole 134-nt RNA, ends assumed
# Together with: 150 mM KCl
# Baseline: input library
# Direction: higher = stronger binding
Sequence,log2 enrichment
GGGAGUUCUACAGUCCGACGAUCUCAAGUCCUGUGCUACACAUCGUAUGUACCGAAUCGGGGCCGGGCCGGCCGGGGAAAGUAUUAUGUUACGCCGUUCGGAUCUGCACUUCCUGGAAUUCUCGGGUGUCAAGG,-0.707
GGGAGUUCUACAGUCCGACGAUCUCCUCAAGUCCUGUGCUACACAUCGUAUGUACCGAAUCGGUGGUUUGGAGGAAAGUAUUAUGUUACGCCGUUCGGAUCUGCACUUCCAGCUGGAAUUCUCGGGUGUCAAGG,-0.216
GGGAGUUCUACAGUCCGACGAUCUGGGAGGUGGAUUUUAUUUAUUUUUUUAGCUCAUUUCCAGGGGUGGGAAUUUUUUUUUAAUAUGUGUCAUGAAUAAAGUUGUUUUUGAAAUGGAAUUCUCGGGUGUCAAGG,1.44
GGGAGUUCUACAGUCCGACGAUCGCAGGAAGUAAAAACAAAUGGAAAUGCUUCGGAUAGUGGCAGGGGUGGGGGUUGCUAAGGAUAGGGUGGGAUGGGAGUGGGUAAAGAGUUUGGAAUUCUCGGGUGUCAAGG,1.35
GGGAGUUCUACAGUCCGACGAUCUCCCUGUCCAAGCUGAGCGCCCUCAACGAGAGCCUUGCUCAGGACAAGUUGGAUCUGAACUGCCUUGUCACCCAGGUACACUGUGCACCUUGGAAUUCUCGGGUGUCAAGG,0.634
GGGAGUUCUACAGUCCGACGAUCAAGUCCUGUGCUACACAUCGUAUGUACCGAAUCGGAAAAAAAGGAGGAAAAAAAGGAAAGUAUUAUGUUACGCCGUUCGGAUCUGCACUUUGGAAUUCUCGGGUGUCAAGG,-0.0682
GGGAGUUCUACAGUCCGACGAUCUGGGAGGUGGAUUUUGUUUAUUUUUUUAGCUCAUUUCCAGGGGUGGGAAUUUUUUUUUAAUAUGUGUAAUGAAUAAAGUUGUUUUUGAAAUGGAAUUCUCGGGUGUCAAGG,2.19
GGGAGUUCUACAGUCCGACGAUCCACAGACAACACGCACCCAAACAGACACAGAGGGAAGGGGUUGGGAUGGGGACAGGGUGCACAGCAGGGCGGGGUAGGACCCCAGCCCCUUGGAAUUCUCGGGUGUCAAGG,-0.142
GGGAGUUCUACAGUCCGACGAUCUCCUGUGCUACACAUCGUAUGUACCGAAUCGGCCCCCCGGGCCCCCCGGGGCCCCCCGGGAAAGUAUUAUGUUACGCCGUUCGGAUCUGCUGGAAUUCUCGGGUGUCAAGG,-0.496
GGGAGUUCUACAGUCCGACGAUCUCAAGUCCUGUGCUACACAUCGUAUGUACCGAAUCGGUUUUUGGAAAAAGGAGGAAAGUAUUAUGUUACGCCGUUCGGAUCUGCACUUCCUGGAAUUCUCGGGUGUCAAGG,-0.117
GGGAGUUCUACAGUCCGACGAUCCCUCAAGUCCUGUGCUACACAUCGUAUGUACCGAAUCGGUUUGGUUUGGAGGAAAGUAUUAUGUUACGCCGUUCGGAUCUGCACUUCCAGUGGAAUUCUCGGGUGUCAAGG,-0.212
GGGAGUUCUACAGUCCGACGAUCCUCAAGUCCUGUGCUACACAUCGUAUGUACCGAAUCGGUGGAAAAAGGAAAGGAAAGUAUUAUGUUACGCCGUUCGGAUCUGCACUUCCAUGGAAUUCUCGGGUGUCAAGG,-0.148
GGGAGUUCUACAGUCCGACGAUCUCCUGUGCUACACAUCGUAUGUACCGAAUCGGGAAAAAGGGAAAAAAAGGGUUUUUGGGAAAGUAUUAUGUUACGCCGUUCGGAUCUGCAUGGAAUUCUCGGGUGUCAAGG,0.0803
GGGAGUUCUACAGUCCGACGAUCAAGUCCUGUGCUACACAUCGUAUGUACCGAAUCGGGGUUUGGGUUUGGGGUUUGGGGAAAGUAUUAUGUUACGCCGUUCGGAUCUGCACUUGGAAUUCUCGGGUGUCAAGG,0.473

# Study 4
# Target: Centromere-binding protein 1, full length, His-tagged (CBF1, Saccharomyces cerevisiae, UniProt P17106, residues 1-351)
# UniProt P17106, sequence (whole entry, looked up): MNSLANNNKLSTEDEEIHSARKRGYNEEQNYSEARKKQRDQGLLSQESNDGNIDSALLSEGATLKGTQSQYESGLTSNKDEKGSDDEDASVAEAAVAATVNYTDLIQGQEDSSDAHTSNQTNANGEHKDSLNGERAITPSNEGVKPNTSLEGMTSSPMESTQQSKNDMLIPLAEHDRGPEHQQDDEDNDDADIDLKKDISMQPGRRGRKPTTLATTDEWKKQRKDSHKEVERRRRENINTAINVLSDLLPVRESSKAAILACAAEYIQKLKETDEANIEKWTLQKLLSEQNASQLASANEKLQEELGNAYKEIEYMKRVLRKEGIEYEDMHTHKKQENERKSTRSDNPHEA
# Method: competition protein-binding microarray
# Molecule type: double-stranded DNA, one strand shown
# Matrix: in vitro
# Tested at: 2 µM
# Setting: whole 60-bp probe, lowest competitor level
# Together with: Pho4 competitor, 0.05 µM
# Direction: higher = stronger binding
Sequence,fluorescence intensity
CCTCCTCTTTTTTTTCACGTGCTTTGCTGATGTAAGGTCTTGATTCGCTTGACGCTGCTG,1350 a.u.
CAGGCAAAAGCGTTACACGTGACGGTGGTATGATCGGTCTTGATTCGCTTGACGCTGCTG,4600 a.u.
CTAACGAAGGTTTGCCATGTGGGTGACAAGCCAAGTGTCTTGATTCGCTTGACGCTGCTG,96.8 a.u.
GGAGGCTTTGCGTCCCACGTGAGGCTTCATGAACAAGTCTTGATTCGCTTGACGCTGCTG,1310 a.u.
GCCTCCTTAGATTGCCCCGTGCCAGCAATGGTCATTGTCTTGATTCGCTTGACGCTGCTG,112 a.u.
CGGGGTTAAGTTTGTCTAGTGGGTGGCTTGCAGCAGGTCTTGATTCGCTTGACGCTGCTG,81.9 a.u.
ATACTCGCTCGCGGCCACGGGTCAACCCGATTGGGAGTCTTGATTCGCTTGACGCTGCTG,85.6 a.u.
GCCTTGCAATTTATCACCGTGAGACATCCAGACAGTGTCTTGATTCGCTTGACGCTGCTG,92.5 a.u.
TTGTCGGCATAACCGCACATGGACGTCTATATGACCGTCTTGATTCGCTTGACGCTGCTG,77.9 a.u.
ATACATCCCCAAGTTCACCTGACTGGAACTAGTGGAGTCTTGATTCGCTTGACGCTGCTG,205 a.u.
CATACCCAACCTTGGTTAGTGGGTGAAGATATTTGTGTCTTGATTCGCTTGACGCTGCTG,59.6 a.u.
AAATTACTAAGTTGACCCGTGGGTGACGCCGTATGAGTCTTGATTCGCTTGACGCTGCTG,80.3 a.u.
ACACACAAATAGTTACACGTGAGAGAAAGGAAGGTAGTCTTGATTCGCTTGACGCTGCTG,1100 a.u.
TAAAGGTGAGTATGGCATGTGGTGGTGGGATTAGAGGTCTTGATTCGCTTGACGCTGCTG,80.1 a.u.
CTTTCCCGATCTTGTCACATTACTTTAGCACATTTGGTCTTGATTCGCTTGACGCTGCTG,125 a.u.
GAGCCGTCCCGCAATCACCTGTAATGGCCAGTTCCCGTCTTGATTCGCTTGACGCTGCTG,65.4 a.u.

# Study 5
# Target: CCNB1, cyclin fold, Cln2 fusion (human)
# Method: yeast growth competition, sequencing
# Matrix: yeast
# Setting: strong parent motif
# Baseline: not given
# Direction: higher = stronger binding
# Starting sequence: E2F1 docking peptide (human); PPVKRRLDLETDH
Variant,normalised enrichment score
D8H,-0.203
T11Q,1.46
V3H,0.211
P1K,1.55
D12A,0.963
K4I,2.38
L7H,0.693
D8F,2.48
R5T,-0.342
V3I,0.266
R5M,0.326
K4M,2.48
V3W,0.553
R6V,0.294
R6A,0.295
P1T,0.835
L7N,-0.306
D12L,1.11

# A few entries again (study 4):
Sequence,fluorescence intensity
CATACCCAACCTTGGTTAGTGGGTGAAGATATTTGTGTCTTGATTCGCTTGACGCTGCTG,59.6 a.u.
TTGTCGGCATAACCGCACATGGACGTCTATATGACCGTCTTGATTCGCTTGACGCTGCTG,77.9 a.u.
CAGGCAAAAGCGTTACACGTGACGGTGGTATGATCGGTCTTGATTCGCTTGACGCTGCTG,4600 a.u.
CTAACGAAGGTTTGCCATGTGGGTGACAAGCCAAGTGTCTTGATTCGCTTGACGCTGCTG,96.8 a.u.
GAGCCGTCCCGCAATCACCTGTAATGGCCAGTTCCCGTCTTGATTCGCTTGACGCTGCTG,65.4 a.u.
GCCTTGCAATTTATCACCGTGAGACATCCAGACAGTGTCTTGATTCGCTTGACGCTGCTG,92.5 a.u.
TAAAGGTGAGTATGGCATGTGGTGGTGGGATTAGAGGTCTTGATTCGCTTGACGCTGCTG,80.1 a.u.
CCTCCTCTTTTTTTTCACGTGCTTTGCTGATGTAAGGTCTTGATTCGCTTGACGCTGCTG,1350 a.u.
AAATTACTAAGTTGACCCGTGGGTGACGCCGTATGAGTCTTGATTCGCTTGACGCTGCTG,80.3 a.u.
ACACACAAATAGTTACACGTGAGAGAAAGGAAGGTAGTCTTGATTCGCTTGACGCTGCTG,1100 a.u.
